Experimental data gathered from unrelated publications.
Numbered parts are unrelated; each lists some results of a single study.

Block 1 — technique: RNA Bind-n-Seq; molecule type: RNA; sample: in vitro; tested at: not given; reference: input RNA pool; reading: higher = stronger binding
Target: RING finger protein unkempt homolog, zinc fingers 1-6, GST-SBP tag (UNK, Homo sapiens, UniProt Q9C0B0, residues 30-357)
UniProt Q9C0B0, sequence (30-357, looked up): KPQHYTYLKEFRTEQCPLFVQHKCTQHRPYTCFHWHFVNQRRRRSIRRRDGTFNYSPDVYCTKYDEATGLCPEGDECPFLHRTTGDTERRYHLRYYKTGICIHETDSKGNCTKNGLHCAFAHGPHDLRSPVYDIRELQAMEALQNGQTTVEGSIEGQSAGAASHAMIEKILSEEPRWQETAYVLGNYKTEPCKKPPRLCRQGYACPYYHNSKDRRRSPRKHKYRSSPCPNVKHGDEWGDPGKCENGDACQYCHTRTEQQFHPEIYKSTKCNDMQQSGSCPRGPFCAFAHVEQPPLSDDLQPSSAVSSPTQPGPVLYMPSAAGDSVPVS
Notes: RNA with constant flanks, human and mouse sites, ends assumed
Shared flanks, not repeated: GGGAGUUCUACAGUCCGACGAUC … CAACAGAGGAUUGAGCAUCA
Sequence | bound/input enrichment [ratio]
CCCAUCAAGAUCGGCCGCUCGGUGGCACGCUGUCGACCAGCGCAGAAUAAUGCCACCUUUGAUUGCAAAGUGCUGUCAAGGAACCAUGCCCUCGUCUGGUUUGAUCACAAGACGAGCAAG | 0.107
AAACAGCAAAAAUAUCCAACAAAAGUCUCCUUCAGUUCACAAGAGAUACCAUUAGCACCAGCUUCAUCAUACCAUUCAACAGAUGCAGACUUCACAGGCUAUGGUGGUUUCCAGGCUCCU | 0.337
AUGGACCUGCAGCUCCACAUUUACCAGCUGAAAACCCUGAUCAGGAUGGUAAAGAAAACCUAUAGAGAUUUCCGAUUGCAAGGGGUCCUGGAUUCCACCUUAAACAGCAAGACCUAUGAG | 1.31
ACACCUGCUUUAUAUAUGCUUUCUCCUUUCAGUCCUCUAAGAAGAAUAUCUAUUAAGAUUUUAGUACACUCCUUAUUCAGCAUGCUCAUCAUGUGCACUAUUCUGACAAACUGCAUAUUU | 0.611
GCCUACCUGUAUUCUUAUGUGAUGCCCCAGGCCAUCCGGGACAUGGUGGACGAGUACAUCAACUGUGAGGAUAUCGCCAUGAACUUCCUUGUCUCCCACAUCACACGGAAACCCCCCAUC | 0.219
AUGUCCUUUCCUGUGGAUAGUGUUGACAUAGGAUUCAGGAAUCAGGUUGAUGACAUCCGUAGCUUUUUGGAUUCCAGACAUCUUGACCACUACACAGUAUACAACUUGUCACCCAAGUCU | 0.192
UCUAUCAUUGUCUUCAACCUGGUGGAACUGGAAGGUGAUUAUCGAGAUGAUCAUAUCUUUUCCCUUUACUUCAUGAUACCAUUUUUCUUUACCACCUUGGGACUGCUUUACCACAACUGG | 0.151
GAGAAACUCAAGACCAUCAGCUUGGUGAUUCGCAGUACCCAGGGGGCUGAGGAGGUGCUUAAAACCCAUGAGGAGCAGCUGAAGGAGGCCCAGGCUGUGCCUGCCACUCUCCAAGAGCUU | 0.11

Block 2 — technique: RNA Bind-n-Seq; molecule type: RNA; sample: in vitro; tested at: 1 µM; notes: whole 134-nt RNA, ends assumed; together with: 150 mM KCl; reference: input library; reading: higher = stronger binding
Target: Ras GTPase-activating protein-binding protein 1, C-terminal RGG region (G3BP1, Homo sapiens, UniProt Q13283)
UniProt Q13283, sequence (whole entry, looked up): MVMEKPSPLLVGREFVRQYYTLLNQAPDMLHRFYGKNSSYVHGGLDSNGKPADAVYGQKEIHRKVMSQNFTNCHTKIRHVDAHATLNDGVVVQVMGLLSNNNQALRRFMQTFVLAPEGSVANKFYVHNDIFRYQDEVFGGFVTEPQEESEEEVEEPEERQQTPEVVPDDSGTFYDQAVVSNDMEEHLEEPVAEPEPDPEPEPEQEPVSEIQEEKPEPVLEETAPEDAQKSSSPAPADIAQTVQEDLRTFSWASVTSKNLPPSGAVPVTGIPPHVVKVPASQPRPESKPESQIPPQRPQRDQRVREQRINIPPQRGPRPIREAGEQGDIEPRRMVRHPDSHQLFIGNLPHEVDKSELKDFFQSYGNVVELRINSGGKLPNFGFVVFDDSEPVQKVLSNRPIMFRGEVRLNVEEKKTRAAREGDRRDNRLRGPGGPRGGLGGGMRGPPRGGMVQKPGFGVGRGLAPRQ
Shared flanks, not repeated: GGGAGUUCUACAGUCCGACGAUC … UGGAAUUCUCGGGUGUCAAGG
Sequence | log2 enrichment
AGUCCUGUGCUACACAUCGUAUGUACCGAAUCGGUUUGGAAAAAAAGGUUUUUUUGGAAAGUAUUAUGUUACGCCGUUCGGAUCUGCACU | -2.24
ACCAUGCUGGUGGGCAUCUUUGGGAAGUGGGGCAAGGGGGGGAUAGGGAGGGGGGUAACACUUUGGGAACAGGUGGUCCCAGGUCGUUUC | -1.61
UCCUGUGCUACACAUCGUAUGUACCGAAUCGGGUUUUUGGGGUUUUUGGGGUUUUUGGGGAAAGUAUUAUGUUACGCCGUUCGGAUCUGC | 0.618
GAAACUACCCGUGUGUAAAAAGAAGAUUGGCUUAAAAUGGCUACUGUGAUGGGAACAGUGUCUUAGGGAGAUGCAGCUUGGACUUGAGGU | 0.0638
CUGUGCUACACAUCGUAUGUACCGAAUCGGGGUUUUUGGGGAAAAAGGGGUUUUUUUGGGGAAAGUAUUAUGUUACGCCGUUCGGAUCUG | 0.858
CACAGACAACACGCACCCACACAGACACAGAGGGAAGGGGUUGGGAUGGGGACAGGGUGCACAGCAGUGCGGGGUAGGACCCCAGCCCCU | -0.591
AGUCCUGUGCUACACAUCGUAUGUACCGAAUCGGGGUUUUUGGGUUUUUGGUUUUUGGAAAGUAUUAUGUUACGCCGUUCGGAUCUGCAC | -1.68
UAACUUUAGAGGAGAAUCUGAUGGAUAUGGCAGUGGACGUGGAUUUGGGGAUGGCUAUAAUGGGUAUGGAGGAGGACCUGGAGGUGGCAA | -1.51
CCUGUGCUACACAUCGUAUGUACCGAAUCGGGGUUUUUGGGGAAAAAAAGGGGAAAGGGGAAAGUAUUAUGUUACGCCGUUCGGAUCUGC | 1.03

Block 3 — technique: RNA Bind-n-Seq; molecule type: RNA; sample: in vitro; tested at: 365 nM; reference: no-protein control; reading: higher = stronger binding
Target: RNA binding protein fox-1 homolog 2, RRM domain, GST-SBP tag (RBFOX2, Homo sapiens, UniProt O43251-10, residues 100-194)
Notes: natural RNA segment, single round, ends assumed
Shared flanks, not repeated: GGGAGUUCUACAGUCCGACGAUC … UGGAAUUCUCGGGUGCCAA
Residues (chain): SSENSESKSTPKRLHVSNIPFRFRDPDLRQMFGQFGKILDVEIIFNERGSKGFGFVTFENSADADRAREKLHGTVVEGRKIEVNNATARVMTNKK
Sequence | RBNS enrichment (R)
GUGAGUUUAGCCAAACUAACAGCAGAAAUAAUACUGGAUUUUGAGUAAGCAGACUUAGGAGAAUAUUUGUUUUAAAAUUCAUGUAACAGAUUUCCCUUUGAAGAAACACU | 0.455
UUCUAAGUUGUGUUUAUUCCUGGAGUGACAUGCCACCCCGAAUGGCUCACUUUCACUGAGGAUGCUGUCCUCUGAUUUAGCUGCUGCCUCCAGCCUCUGGCUUGAGAACU | 0.183
CUUAGUAGAUAAAUAGUAAUAAUAAUAAUAAUACAAUUGAGUUAUCAGCCACAAUUCCUUUUGGAACUGUUACACUCUGCCUCUGGUCCCUCCAACGUGGUCCUCUUCCU | 0.301
AUGCUUCCAACCCAAAGGCCUUUCAUCUCAAUAUCUGUCAAACUUGAAUAAUGUCUUCUCUUUAAUAUUCACAUAAGGCAGCCUAUUAACUGUGUCUUAGCAAUGUUGUA | 0.574
AAGACUGUUUUCAUAUGUUAUACUCAGAUAAAGAUUUUAAAUGGUAUUACGUAUAAAUUAAUAUAAAAUGAUUACCUCUGGUGUUGACAGGUUUGAACUUGCACUUCUUA | 0.397
UCUUACUCUGACACAUAGUAAUUGUGACAGCAGGGCUAAUGUUGAAGAAAAGUCAGAAGAAUCUUUAAGAUUUUAAAAAUGUCUUUAAAGUUUUUAAAAUGCUUACUACA | 0.474
GUGGCCCGUGCAGUCUGGGGUCCACAGCUCUUCCUCUCCUUCCUGUGCUCCCUGCCUUGCCUAGGAUGAAGCCUCCAGCGCUGCUCCCUGGCCCUGUUCCUGGCAUAUGG | 0.755
UUCACCGUGCGUGGACACUGCUAGGCCGCCUGGGGUCCCCUGCCUCCUGCCUGUCGCUGCCGUGGUCCCUGACUGCGAAAUAGGCCCGCGGGGCUCUCCCUCCUCCUGCC | 0.287

Block 4 — technique: protein binding microarray; molecule type: double-stranded DNA, one strand shown; sample: in vitro; tested at: not given; reference: not given; reading: higher = stronger binding
Target: Histone acetyltransferase KAT6A, winged helix 2, GST fusion (KAT6A, Homo sapiens, UniProt Q92794, residues 85-181)
Notes: 8-mer, flanks averaged, mean of 2 arrays, mostly near background
Residues (chain): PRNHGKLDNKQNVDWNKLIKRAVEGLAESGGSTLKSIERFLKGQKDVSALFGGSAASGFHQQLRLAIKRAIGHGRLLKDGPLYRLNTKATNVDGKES
Sequence | E-score
CACCCCAG | -0.0821
AAGAAACA | 0.0897
GTGTCTGA | 0.063
ACTGCACC | 0.125
GAGCCTAA | 0.0927
CCAAGTCC | -0.241
AGACTCGC | -0.0432
GAATGGCC | 0.0793
CCTGGGGC | 0.11
CAGACCTA | -0.0266
GACGGCGC | 0.094
GGCAGAAC | 0.0852
AGCCGGAT | 0.231
ACTGTATC | -0.123
CAGCCAAG | -0.0281
ATATAAGC | -0.0553
CAGCCCAG | 0.0823
ACTTCGCC | 0.0853
AGCAACGG | 0.059
ATCAATAC | -0.108
TGGTGACA | -0.0789
ATTATATG | 0.0481

Some of these lines once more (block 2):
Sequence | log2 enrichment
UCCUGUGCUACACAUCGUAUGUACCGAAUCGGGUUUUUGGGGUUUUUGGGGUUUUUGGGGAAAGUAUUAUGUUACGCCGUUCGGAUCUGC | 0.618
GAAACUACCCGUGUGUAAAAAGAAGAUUGGCUUAAAAUGGCUACUGUGAUGGGAACAGUGUCUUAGGGAGAUGCAGCUUGGACUUGAGGU | 0.0638
CUGUGCUACACAUCGUAUGUACCGAAUCGGGGUUUUUGGGGAAAAAGGGGUUUUUUUGGGGAAAGUAUUAUGUUACGCCGUUCGGAUCUG | 0.858
CACAGACAACACGCACCCACACAGACACAGAGGGAAGGGGUUGGGAUGGGGACAGGGUGCACAGCAGUGCGGGGUAGGACCCCAGCCCCU | -0.591
AGUCCUGUGCUACACAUCGUAUGUACCGAAUCGGGGUUUUUGGGUUUUUGGUUUUUGGAAAGUAUUAUGUUACGCCGUUCGGAUCUGCAC | -1.68
UAACUUUAGAGGAGAAUCUGAUGGAUAUGGCAGUGGACGUGGAUUUGGGGAUGGCUAUAAUGGGUAUGGAGGAGGACCUGGAGGUGGCAA | -1.51
